Results collected from several papers.
A part holds a random share of what one study measured. Positions count from the first letter of the parent shown.

Series 1 — technique: RNA Bind-n-Seq; molecule type: RNA; matrix: in vitro; concentration: 100 nM; baseline: input RNA pool; reading: higher = stronger binding; endpoint: bound/input enrichment
Target: RING finger protein unkempt homolog, zinc fingers 1-6, SBP tag (UNK, Homo sapiens, UniProt Q9C0B0, residues 30-357)
Chain of UniProt Q9C0B0 (30-357, looked up): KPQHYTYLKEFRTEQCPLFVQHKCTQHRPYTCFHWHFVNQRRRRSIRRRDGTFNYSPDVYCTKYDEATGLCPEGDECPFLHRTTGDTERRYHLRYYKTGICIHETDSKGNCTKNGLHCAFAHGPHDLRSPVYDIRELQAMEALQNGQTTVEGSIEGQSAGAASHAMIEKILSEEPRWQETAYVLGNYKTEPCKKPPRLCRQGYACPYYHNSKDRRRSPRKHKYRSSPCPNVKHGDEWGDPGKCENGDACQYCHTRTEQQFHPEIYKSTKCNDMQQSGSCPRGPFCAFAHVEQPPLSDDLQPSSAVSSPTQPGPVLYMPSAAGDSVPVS
Setting: RNA with constant flanks, vertebrate orthologous sites, ends assumed
Shared flanks, not repeated: GGGAGUUCUACAGUCCGACGAUC … CAACAGAGGAUUGAGCAUCA
CUGUUGUUAAGCACUGUGUUCCAGACCGUGUCUGACUUUAGUGUAACCUAGGAGAUUUUAUAGUUUUAUUUUAAUGAAGCCCUGAUUGGUGCAGAGCAGCGGGAAAAGCAGUGUCUUUCA: 2.91 ratio
UUUUAUUGAUCAGGUCUGUAAAUGUGUACUAAAAAAAUCAGAGUUUAUUUAUAAACAGAAUAGUUUAUUUAAAAAGGUCUUUCUUCAUUGAUAUUGUGGUAUGCAUUAAUUCCAUUUGUU: 0.209 ratio
UUGACUUUGGACGUCCGCCCUUCCUCGGCGCGAAGGCUGUUCAGUCCCGGGCUUUGCAAGUUUGUCGUUCUCUCCGGGACUCGAGGCUUCUGCCGCAGCCAUGAUCCGCCAGAUCAUCGG: 0.126 ratio
AUCCCUCAGUGACAGUAUGCCAUCUGUAGCAGACUCCCACUCUAGUCACUUUUCUGAAUUUAGUUGUUCUGACCUAGAAAGCAUGAAAACGUCUUGUAGCCAUGGUUCCAAUGACCAUCA: 2.76 ratio
UAGUACUUAAGCCAACAACAGUUCUAAAAUGCUAUUUAUUUGUGUCUGUAAGAUUGUACAUAUACUACCAACCUCAUACUGUUGUGGAUUUUUUUCUCACAAGCUUGAGUUUAGGUUUUU: 0.481 ratio
UUUUAUUGAUCAGGUCUGUAAAUGUGUACUAAAAAAAUCAGAGUUUAUUUAUAAACAAGAGAGUUUAUUUAAAGUGAAGGUCUUUUCUCAUCAAUAUUGUGGUAUACAUUAAUUCCAUUU: 0.263 ratio
GCCUACAAUAAUGAAAACCUACCAGGAAUUUUUUAAUUUUUCAUUUCCCUUAGGCAUACUUAGUCUUUUUUUCCCCCAGGCAGAUCAUUCUGAGUGUGCGAGUGUGUGUGCACAUGUUAC: 1.26 ratio
AUAAUCACUCUAAUUGUAAUCUGAAUAAAGUGUAACAUUGUGUAGCUUUUUUGUAUAAAAUAGACAAAUAGAAAUGGUCCAAUUAGUUUCCUUUUUAAUAUGCUUAAAAUAAGCAGGUGG: 2.38 ratio
UGGCGGGCCCGGGCCCCCGCCGCUCAGAGCAGCCCACUGGCCACGUCAGCCAGGCCAUUUGGGCUGUUUAUUUUACCAGUGCCCUUACUACCCUGUGUACAUGCCUGAGAUCUGGAAAGA: 0.694 ratio
UAUCAGUAGAAUUACAUAAUACUAAAGUUGCCGUUGAAAGAAUAUCCAAGUAUGUGUUGGUAGUUACUAAAAGAAUUAUAGCUGUUAUUGCCUUGUAUUUAUAGUCCUUGUUUCAGGUUU: 1.03 ratio
GCAUUUGCCGCUAUCACCAAAAGCAAACUUCCACUUUUCAAAUUUCAUUCCGAGCCGUUUUAGUGUUUCCUAUUCCCUACCCUUCCCAUGACUUUCUCUGAUGAAAUAUACUGUUCUCCU: 1.47 ratio

Series 2 — technique: DHFR PCA, deep sequencing; matrix: yeast; with: (+)-ABA 0.032 µM; baseline: wild-type fitted maximum; reading: higher = stronger binding; endpoint: relative binding score
Target: ABI1, truncated, D143A, DHFR fusion (Arabidopsis thaliana)
Setting: methotrexate growth selection, single substitutions
Starting sequence: PYL1, truncated, DHFR fusion (Arabidopsis thaliana); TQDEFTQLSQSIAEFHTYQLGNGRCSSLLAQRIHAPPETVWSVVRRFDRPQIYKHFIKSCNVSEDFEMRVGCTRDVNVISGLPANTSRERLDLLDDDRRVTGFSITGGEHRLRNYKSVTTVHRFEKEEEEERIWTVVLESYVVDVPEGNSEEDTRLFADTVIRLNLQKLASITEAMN; partner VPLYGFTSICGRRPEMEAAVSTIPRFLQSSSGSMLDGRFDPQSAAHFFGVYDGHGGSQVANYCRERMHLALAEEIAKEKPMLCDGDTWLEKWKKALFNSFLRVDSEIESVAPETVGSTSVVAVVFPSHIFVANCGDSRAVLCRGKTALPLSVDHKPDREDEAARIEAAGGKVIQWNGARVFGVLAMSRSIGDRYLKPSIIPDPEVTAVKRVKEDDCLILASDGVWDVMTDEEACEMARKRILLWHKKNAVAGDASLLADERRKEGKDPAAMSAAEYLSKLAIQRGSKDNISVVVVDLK
T39A: 23.7%
V76P: 0.408%
R32E: 26.5%
V137C: 0.0131%
D96W: 2.98%
R113C: 9.21%
K126S: 70.9%
E4P: 7.09%
V44L: 6.64%
R49I: -3.19%
H122P: 1.07%
E130I: 16.6%
A170Y: -15.7%
K58H: 14.3%
P36T: 11.5%
Q7I: 12%
A158Y: 19.7%
F47P: -1.17%
N61W: 11.5%
E38V: 2.18%
V76F: -9.5%
E125P: 34.8%

Series 3 — target: CCNB3, cyclin fold, Cln2 fusion (human); technique: yeast growth competition, sequencing; matrix: yeast; setting: weak parent motif; baseline: not given; reading: higher = stronger binding; endpoint: normalised enrichment score
Starting sequence: PKN2 docking peptide (human); VSAVQKLDFSDTM
V1I: -0.366
K6C: 0.481
D11Q: 0.0735
M13R: 0.408
M13P: -0.0768
M13W: 0.446
S10P: 0.453
L7E: 0.0511
D11T: 0.0234
S10E: 0.548
V1C: 0.507
D8F: 0.301
A3N: -0.183
M13G: 0.0662
K6G: 0.265
V4A: -0.0584
V1K: 0.308
A3E: 0.32
T12R: 0.181
T12C: 0.656
M13L: 0.163
V1P: 0.474
S10G: 0.37
F9H: -0.223
D11V: 0.277

Series 4 — technique: RNA Bind-n-Seq; molecule type: RNA; matrix: in vitro; concentration: 365 nM; baseline: no-protein control; reading: higher = stronger binding; endpoint: RBNS enrichment (R)
Target: RNA binding protein fox-1 homolog 2, RRM domain, GST-SBP tag (RBFOX2, Homo sapiens, UniProt O43251-10, residues 100-194)
Setting: natural RNA segment, single round, ends assumed
Shared flanks, not repeated: GGGAGUUCUACAGUCCGACGAUC … UGGAAUUCUCGGGUGCCAA
Target sequence (chain): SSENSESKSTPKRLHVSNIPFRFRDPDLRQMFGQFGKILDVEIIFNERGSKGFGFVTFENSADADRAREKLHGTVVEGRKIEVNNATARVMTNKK
GGGGCCAUCAAACUGUCUACCUGAUGCUGUGGUUUCUGCUUAGAGAUCUGGAGGAGGGCAGCGGAGCCUGCCUCGGUUCAGUGAUGGUUUUUCUUACCUGCUUCAAGCCG: 0.245
AUGCCCUGCCAGAAGGCGCUGCCUUAAAUGGUCCUGUUAACUGCUGCCACCCGGCCGUGGCCCGCCCUGGUCAGGCUGCUUCCUUAAUCAAGAAAACUACCUGGUGAUGC: 0.265
AUGUGACCACUCUGUCUUGUGUUUCCACAGCCUGCAAGUCAGUCCAGGAUGCUAACAUCUAAAAAUAGACUUAAAUCUCAUUGCUUACAAGCCUAAGAAUCUUUAGAGAA: 0.593
ACAUUUGCAAGUCAGGGGCAUUUUCCUUGACCCUUGACUGAUGCUAUGCGGAGACUGAUACAUUUUCUUAAUGGACAAUGUUCAAGCCAGGUACCCAUGCUUGAUCUGUC: 0.217
GUGCCAUUGAGUUUCAAAUGACCAGCAAAUAUAUUUAGAACCCUUCCUGUUUUAUGUCUGUACCUCGUCCACCCCUCAGGUAAUACCUGCCUCUCACAGGUACAGCUGUU: 0.596
AGAAGUCAAGAACUGAGGUUUGGGAACCUCUGCCUAGAUUUCAGAGAAUGUAUGGAAAUGCAUGUAUGUCCAGGCAGAAGUUUGCUACAGGAGUGAGGCCCUCAUGGAGA: 7.6
AUGAAGAACACAGGGAUAAAGCAAAGGCCAUCAUGCCGCAGACUGGAGCCACCUGGAAGCCACUCCAAUUUGGUGGCACAGGACAGGUUUCCAAGAUGUCACGAGAAAAG: 0.485
CUGUUUAGCUUGGGAAGCCAAAAGUGGAUGCCUGUGUUCAUGGGCCUCCCCUGGGAGUUAGUGAUUUGGGGGACCAGCCUCACUGCAGACUCCAGGCUCUGACAGGUAGU: 0.461
CUAUGCAAACACAGGCCCUGACCUCCCCAUGUCUGUUCCUGGUCCUCACAGCCCGACACGCCCUGCUGAGGCAGACGAAUGACAUUAAGUUCUGAAGCAGAGUGGAGAUA: 2.3
ACCAAAUAGAAAUGUAUAUUUUAUUAUGCAAUGCCUUAGUCAUAAACUGGGCUCAAACAAUCCUCAGCCUAAAACACUGUUGUCUUUUAAUAUGCUUCCAACCCAAAGGC: 0.436
GCAGUGCUCGGAACAGCUGAGGCCGUGGCGGGCUCCACUAACCCCCAGUGUUAUCGUGUUUUAUAGCUGCCUUUCUGUGUCUUACACAGUUUGAGAGUAUAUGUUAAUGA: 1.15
AGAAAAAAAUGUCUUCUGCAAAUUUUCUAGUAUAACAGAAAUUUUUGUAGAUGAAAAAAAUCAUUAUGUUUAGAGGUCUAAUGCUAUGUUUUCAUAUUACAGAGUGAAUU: 0.519

Mixed results
PhoQ, residues 284 288 289 292 302 303 ALAMYF  fold induction (PhoP, residues 12 14 15 18 19 NQAHL (Escherichia coli, UniProt P23836); Sort-seq, item: YFP reporter; E. coli; PhoQ-PhoP variant library, with: 10 µM Mg2+; baseline: high Mg2+ state, higher = stronger signaling): 10
